{"data": "Published values of several laboratories", "note": "Lines come from different studies, so protocols differ. ± gives the spread as reported.", "sequence of UniProt Q13619 (whole entry, looked up)": "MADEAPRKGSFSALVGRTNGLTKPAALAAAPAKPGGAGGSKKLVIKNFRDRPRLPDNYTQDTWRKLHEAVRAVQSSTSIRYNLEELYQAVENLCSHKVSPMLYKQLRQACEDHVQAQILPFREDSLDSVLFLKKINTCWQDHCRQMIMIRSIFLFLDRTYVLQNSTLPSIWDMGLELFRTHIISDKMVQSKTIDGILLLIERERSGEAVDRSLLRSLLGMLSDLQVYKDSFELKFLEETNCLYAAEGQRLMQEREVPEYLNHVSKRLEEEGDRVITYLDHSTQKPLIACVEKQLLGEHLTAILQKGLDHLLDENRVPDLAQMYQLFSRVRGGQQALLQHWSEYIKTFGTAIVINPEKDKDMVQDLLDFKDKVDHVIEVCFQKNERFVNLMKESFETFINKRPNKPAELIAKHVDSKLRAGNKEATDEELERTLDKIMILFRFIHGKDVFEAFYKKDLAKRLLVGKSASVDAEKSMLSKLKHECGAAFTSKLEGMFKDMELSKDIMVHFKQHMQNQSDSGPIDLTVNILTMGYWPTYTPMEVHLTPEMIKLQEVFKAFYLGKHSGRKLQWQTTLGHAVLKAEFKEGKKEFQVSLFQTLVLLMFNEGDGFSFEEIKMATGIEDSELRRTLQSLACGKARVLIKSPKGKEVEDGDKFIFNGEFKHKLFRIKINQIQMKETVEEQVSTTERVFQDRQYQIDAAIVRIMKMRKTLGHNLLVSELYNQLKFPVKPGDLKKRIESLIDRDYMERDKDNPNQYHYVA", "sequence of UniProt P50750 (whole entry, looked up)": "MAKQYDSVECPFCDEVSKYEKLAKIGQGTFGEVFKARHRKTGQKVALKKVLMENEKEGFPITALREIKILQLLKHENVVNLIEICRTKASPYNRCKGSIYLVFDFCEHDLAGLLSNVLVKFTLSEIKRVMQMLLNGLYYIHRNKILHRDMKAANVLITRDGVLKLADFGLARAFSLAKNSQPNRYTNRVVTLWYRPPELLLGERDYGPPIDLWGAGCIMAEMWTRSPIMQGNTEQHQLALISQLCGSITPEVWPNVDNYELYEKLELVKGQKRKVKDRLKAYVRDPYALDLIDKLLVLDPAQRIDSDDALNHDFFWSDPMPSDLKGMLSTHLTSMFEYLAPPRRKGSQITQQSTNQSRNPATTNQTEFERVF", "sequence of UniProt P21397 (whole entry, looked up)": "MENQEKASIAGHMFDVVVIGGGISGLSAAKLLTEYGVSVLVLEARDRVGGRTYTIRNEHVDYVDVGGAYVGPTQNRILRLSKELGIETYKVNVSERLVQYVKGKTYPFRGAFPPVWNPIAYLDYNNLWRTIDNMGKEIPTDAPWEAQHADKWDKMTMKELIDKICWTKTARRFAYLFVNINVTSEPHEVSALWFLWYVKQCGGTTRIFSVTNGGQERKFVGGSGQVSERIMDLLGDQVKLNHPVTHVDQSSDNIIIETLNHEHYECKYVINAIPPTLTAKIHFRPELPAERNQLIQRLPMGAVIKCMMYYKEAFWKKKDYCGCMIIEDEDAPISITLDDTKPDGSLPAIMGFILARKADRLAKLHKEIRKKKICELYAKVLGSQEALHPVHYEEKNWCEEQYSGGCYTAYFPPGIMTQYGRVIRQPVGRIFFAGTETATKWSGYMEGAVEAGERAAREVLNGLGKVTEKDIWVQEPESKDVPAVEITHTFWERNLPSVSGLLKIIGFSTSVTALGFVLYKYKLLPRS", "sequence of UniProt P06186 (whole entry, looked up)": "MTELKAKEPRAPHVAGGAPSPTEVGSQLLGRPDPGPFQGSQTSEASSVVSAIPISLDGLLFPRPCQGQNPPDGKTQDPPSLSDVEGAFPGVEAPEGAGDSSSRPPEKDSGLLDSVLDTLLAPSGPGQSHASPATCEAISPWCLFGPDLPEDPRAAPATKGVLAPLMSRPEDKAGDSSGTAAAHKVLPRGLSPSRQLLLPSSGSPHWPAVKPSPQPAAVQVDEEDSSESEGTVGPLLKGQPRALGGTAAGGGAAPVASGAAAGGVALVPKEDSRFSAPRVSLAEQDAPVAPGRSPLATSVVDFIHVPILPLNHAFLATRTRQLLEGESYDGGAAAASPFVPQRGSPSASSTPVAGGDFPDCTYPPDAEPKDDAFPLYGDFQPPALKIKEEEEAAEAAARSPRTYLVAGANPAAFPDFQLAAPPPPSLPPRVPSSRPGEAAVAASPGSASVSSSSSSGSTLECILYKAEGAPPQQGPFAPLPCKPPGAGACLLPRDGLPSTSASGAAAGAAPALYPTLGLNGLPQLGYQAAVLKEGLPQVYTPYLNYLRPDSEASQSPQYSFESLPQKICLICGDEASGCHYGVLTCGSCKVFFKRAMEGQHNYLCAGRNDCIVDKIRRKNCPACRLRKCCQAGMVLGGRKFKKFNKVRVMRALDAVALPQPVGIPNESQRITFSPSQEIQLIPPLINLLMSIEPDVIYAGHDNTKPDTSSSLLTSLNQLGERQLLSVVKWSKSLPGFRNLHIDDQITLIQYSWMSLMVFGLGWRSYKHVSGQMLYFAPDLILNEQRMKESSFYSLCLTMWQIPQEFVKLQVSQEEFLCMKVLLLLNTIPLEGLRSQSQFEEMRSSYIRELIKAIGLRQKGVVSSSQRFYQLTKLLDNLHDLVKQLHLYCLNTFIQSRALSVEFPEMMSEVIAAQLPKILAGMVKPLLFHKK", "sequence of UniProt P41595 (whole entry, looked up)": "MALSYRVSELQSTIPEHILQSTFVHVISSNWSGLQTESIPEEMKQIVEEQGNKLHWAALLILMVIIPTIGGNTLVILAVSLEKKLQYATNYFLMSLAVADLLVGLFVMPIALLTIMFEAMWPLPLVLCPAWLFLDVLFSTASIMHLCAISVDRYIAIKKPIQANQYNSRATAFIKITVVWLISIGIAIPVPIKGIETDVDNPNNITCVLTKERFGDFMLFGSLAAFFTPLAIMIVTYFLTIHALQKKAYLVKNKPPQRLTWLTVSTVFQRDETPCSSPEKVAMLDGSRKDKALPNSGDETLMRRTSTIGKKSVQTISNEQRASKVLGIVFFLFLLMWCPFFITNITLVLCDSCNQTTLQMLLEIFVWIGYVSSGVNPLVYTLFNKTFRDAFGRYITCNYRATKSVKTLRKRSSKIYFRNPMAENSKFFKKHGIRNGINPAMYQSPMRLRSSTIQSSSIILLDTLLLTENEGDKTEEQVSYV", "sequence of UniProt Q9Y294 (whole entry, looked up)": "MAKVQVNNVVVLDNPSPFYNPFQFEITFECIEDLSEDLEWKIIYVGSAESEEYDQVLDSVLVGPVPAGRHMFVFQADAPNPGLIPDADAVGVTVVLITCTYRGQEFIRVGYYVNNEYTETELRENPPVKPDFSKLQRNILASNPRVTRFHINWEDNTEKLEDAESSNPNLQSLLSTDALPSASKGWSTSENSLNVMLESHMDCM", "sequence of UniProt P05067 (whole entry, looked up)": "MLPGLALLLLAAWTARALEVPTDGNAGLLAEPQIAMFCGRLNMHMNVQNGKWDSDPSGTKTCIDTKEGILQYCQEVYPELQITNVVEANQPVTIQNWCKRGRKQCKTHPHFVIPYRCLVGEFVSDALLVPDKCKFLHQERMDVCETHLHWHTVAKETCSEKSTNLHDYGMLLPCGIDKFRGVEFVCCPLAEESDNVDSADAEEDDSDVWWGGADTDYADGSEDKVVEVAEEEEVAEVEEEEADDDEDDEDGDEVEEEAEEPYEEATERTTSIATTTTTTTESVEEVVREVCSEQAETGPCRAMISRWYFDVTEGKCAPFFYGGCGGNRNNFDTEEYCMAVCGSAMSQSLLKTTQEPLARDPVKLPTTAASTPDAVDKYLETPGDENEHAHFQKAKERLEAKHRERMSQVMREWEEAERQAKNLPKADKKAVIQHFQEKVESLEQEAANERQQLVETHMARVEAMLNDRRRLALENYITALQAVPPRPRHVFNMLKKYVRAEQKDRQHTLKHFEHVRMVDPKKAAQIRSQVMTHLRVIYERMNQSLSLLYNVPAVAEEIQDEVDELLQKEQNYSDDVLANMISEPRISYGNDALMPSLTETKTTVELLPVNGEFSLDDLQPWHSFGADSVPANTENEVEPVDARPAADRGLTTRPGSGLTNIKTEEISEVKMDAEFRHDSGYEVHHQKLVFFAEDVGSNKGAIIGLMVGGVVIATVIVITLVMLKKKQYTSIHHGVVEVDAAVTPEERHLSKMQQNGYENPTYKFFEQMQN", "sequence of UniProt P18654 (whole entry, unmodified, looked up)": "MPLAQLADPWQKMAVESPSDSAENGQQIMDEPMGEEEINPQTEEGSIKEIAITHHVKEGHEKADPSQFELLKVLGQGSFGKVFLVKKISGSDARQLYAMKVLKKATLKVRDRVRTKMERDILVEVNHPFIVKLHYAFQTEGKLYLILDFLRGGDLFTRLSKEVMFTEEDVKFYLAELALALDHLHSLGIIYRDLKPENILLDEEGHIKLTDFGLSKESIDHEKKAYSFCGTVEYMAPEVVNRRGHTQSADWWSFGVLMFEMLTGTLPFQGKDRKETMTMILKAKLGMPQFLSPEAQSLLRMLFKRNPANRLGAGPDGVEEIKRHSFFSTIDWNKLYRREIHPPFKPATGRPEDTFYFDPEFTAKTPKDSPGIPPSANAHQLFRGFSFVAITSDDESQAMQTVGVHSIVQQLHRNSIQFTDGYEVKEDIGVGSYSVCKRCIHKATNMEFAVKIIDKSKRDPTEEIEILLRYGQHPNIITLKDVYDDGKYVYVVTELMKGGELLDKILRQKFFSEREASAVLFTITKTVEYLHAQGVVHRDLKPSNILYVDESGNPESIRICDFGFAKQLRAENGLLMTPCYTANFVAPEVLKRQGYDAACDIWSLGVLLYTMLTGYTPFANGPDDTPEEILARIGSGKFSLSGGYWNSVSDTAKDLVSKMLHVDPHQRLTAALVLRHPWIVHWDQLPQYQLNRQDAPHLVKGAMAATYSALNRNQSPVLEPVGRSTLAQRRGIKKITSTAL"}
{"target": "MAOA (Homo sapiens, UniProt P21397)", "assay": "enzyme activity, inhibitor", "setting": "10 µM", "quantity": "remaining activity", "result": "87.5%", "SMILES": "COc1ccc2c(c1)/C(=N/N=C/c1ccc(OCc3cccc(F)c3)cc1)C(=O)N2"}
{"target": "HTR2B (Homo sapiens, UniProt P41595)", "assay": "arrestin recruitment, Tango", "system": "cells", "how to read": "baseline: serotonin", "quantity": "efficacy", "result": "~25%", "SMILES": "Cn1ccc2c(N3CCN(CCCCOc4ccc5c(c4)NC(=O)CC5)CC3)cccc21"}
{"target": "Cullin-4A, in CRL4-CRBN complex (CUL4A, Homo sapiens, UniProt Q13619)", "assay": "CK1α ubiquitination by CRL4-CRBN, inhibitor", "quantity": "effective concentration range", "result": "~10 µM", "SMILES": "O=c1c(-c2cnn(-c3ccc(Cl)cc3)c2)c(C(F)(F)F)oc2c(O)c(O)ccc12"}
{"target": "Ribosomal protein S6 kinase alpha-3, C-terminal kinase domain (Rps6ka3, Mus musculus, UniProt P18654, C436V)", "assay": "kinase activity, inhibitor", "how to read": "baseline: C436V mutant over wild type", "quantity": "fold resistance", "result": "~1000 fold", "SMILES": "COC(=O)/C(C#N)=C/c1c(-c2ccc(C)cc2)c2c(N)ncnc2n1CCCO"}
{"target": "Complement C3 (Homo sapiens, UniProt P01024)", "assay": "ITC", "system": "PBS", "setting": "concentration not given, pH 7.4, 25 °C", "quantity": "−TΔS of binding", "result": "5.7 kcal/mol", "SMILES": "CC[C@H](C)[C@H](NC(C)=O)C(=O)N[C@H]1CSSC[C@@H](C(=O)N(C)[C@H](C(N)=O)[C@@H](C)CC)NC(=O)[C@H](CCCNC(=N)N)NC(=O)[C@H](Cc2c[nH]cn2)NC(=O)[C@H](C)NC(=O)CN(C)C(=O)[C@H](Cc2c[nH]c3ccccc23)NC(=O)[C@H](CC(=O)O)NC(=O)[C@H](CCC(N)=O)NC(=O)[C@H](Cc2cn(C)c3ccccc23)NC(=O)[C@H](C(C)C)NC1=O"}
{"target": "laccase (Trametes versicolor)", "assay": "substrate", "setting": "product formation", "quantity": "Km", "result": "428 ± 23 µM", "SMILES": "O=C1c2ccc(O)cc2OC2c3cc(-c4coc5cc(O)ccc5c4=O)ccc3OC12c1ccc(O)cc1 (centres unmarked)"}
{"target": "lecA (Pseudomonas aeruginosa, UniProt Q05097)", "assay": "ITC", "setting": "5% DMSO", "quantity": "–TΔS", "result": "0.4 ± 0.1 kcal/mol", "SMILES": "COCCOCCOc1cc(-c2cn([C@H]3[C@H](O)[C@@H](O)[C@H](n4cc(-c5ccc(O[C@@H]6O[C@H](CO)[C@H](O)[C@H](O)[C@H]6O)cc5)nn4)O[C@@H]3CO)nn2)c(OCCOCCOC)cc1-c1cn([C@H]2[C@H](O)[C@@H](O)[C@H](n3cc(-c4ccc(O[C@@H]5O[C@H](CO)[C@H](O)[C@H](O)[C@H]5O)cc4)nn3)O[C@@H]2CO)nn1"}
{"target": "CDK9 (Homo sapiens, UniProt P50750)", "assay": "CETSA", "system": "MDA-MB-231 lysate", "setting": "3 µM, 30 min", "quantity": "melting temperature", "result": "60 °C", "SMILES": "Clc1ccc2ccc3[n+](c2c1)[Ir-3]12([c]4ccccc4-3)([c]3ccccc3-c3ccc4ccc(Cl)cc4[n+]31)[n+]1ccccc1-c1cccc[n+]12.F[P-](F)(F)(F)(F)F"}
{"target": "Histone chaperone ASF1A (Homo sapiens, UniProt Q9Y294)", "assay": "isothermal titration calorimetry", "setting": "concentration not given, pH 7.5, 20 °C", "quantity": "binding enthalpy", "result": "-3.6 ± 0.5 kcal/mol", "SMILES": "CC[C@H](C)[C@H](NC(=O)[C@H](CCCNC(=N)N)NC(=O)NC[C@H](CCC(N)=O)NC(=O)NC[C@H](CC(C)C)NC(=O)NC[C@H](CCCNC(=N)N)NC(=O)NC[C@H](Cc1c[nH]c2ccccc12)NC(=O)[C@H](CCCCN)NC(=O)[C@H](CCC(=O)O)NC(C)=O)C(=O)N[C@@H](C)C(N)=O"}
{"target": "Progesterone receptor (Oryctolagus cuniculus, UniProt P06186)", "assay": "endometrial transformation, McPhail test", "system": "rabbit", "setting": "oral, with: progesterone", "quantity": "full efficacy dose", "result": "1 mg/kg", "SMILES": "C[C@]12C[C@H](c3ccc(S(C)(=O)=O)cc3)C3=C4CCC(=O)C=C4CC[C@H]3[C@@H]1CC[C@@]2(O)C(F)(F)C(F)(F)F"}
{"target": "Amyloid-beta precursor protein, Aβ42 aggregates (APP, Homo sapiens, UniProt P05067)", "assay": "binding, fluorescence spectroscopy", "system": "PBS", "setting": "4 µM, with: pre-aggregated Aβ(1-42) 5 µM", "quantity": "excitation maximum", "result": "434 nm", "SMILES": "CN(C)c1ccc(C=C(C#N)C(=O)OCC(O)CO)cc1 (centres unmarked)"}
{"note": "Excerpt of the above:"}
{"target": "Progesterone receptor (Oryctolagus cuniculus, UniProt P06186)", "assay": "endometrial transformation, McPhail test", "system": "rabbit", "setting": "oral, with: progesterone", "quantity": "full efficacy dose", "result": "1 mg/kg", "SMILES": "C[C@]12C[C@H](c3ccc(S(C)(=O)=O)cc3)C3=C4CCC(=O)C=C4CC[C@H]3[C@@H]1CC[C@@]2(O)C(F)(F)C(F)(F)F"}
